Published values collected from several papers.
Every numbered part comes from another study and shows a few of its results, in no order. Changes are numbered by the printed parent chain.

Set 1
Target: CCNB1, cyclin fold, Cln2 fusion (human)
Technique: yeast growth competition, sequencing
Sample: yeast
Setting: weak parent motif
Reference: not given
Direction: higher = stronger binding
Measurement: normalised enrichment score
Starting sequence: REPIN1 docking peptide (human); QSFRGWVALVLHL
V10A: 0.00494
V7A: 0.835
S2A: 0.446
L9A: -0.513
G5A: 0.893
R4A: 0.484

Set 2
Target: Histone acetyltransferase KAT6A, winged helix 2, GST fusion (KAT6A, Homo sapiens, UniProt Q92794, residues 85-181)
Technique: protein binding microarray
Molecule type: double-stranded DNA, one strand shown
Sample: in vitro
Tested at: not given
Setting: 8-mer, flanks averaged, mean of 2 arrays, mostly near background
Reference: not given
Direction: higher = stronger binding
Measurement: E-score
Residues (chain): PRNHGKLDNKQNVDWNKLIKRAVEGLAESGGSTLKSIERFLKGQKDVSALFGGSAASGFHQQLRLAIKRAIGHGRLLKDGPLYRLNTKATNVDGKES
ATTCAATA: 0.0181
GGCTACTA: 0.0363
AGGTCACG: -0.146
CACGAAGA: 0.224
GACATTAC: -0.0429
CTATGGTC: -0.097
GTAAATTA: -0.196
ACCGGATG: 0.189
CTCTTCAG: -0.00063
AAAAGATA: 0.066
AGGTATAG: -0.16
TCACCCCA: -0.11
AGACTTCG: -0.159
CGGTAGGC: -0.00881
CAATTTAG: 0.00924
CCCTCAGA: -0.022
TCGAATAA: -0.0348
CTCCAAAC: 0.0244
AATAATCT: 0.00819
GCAACCCA: 0.0175
CCGCACGA: 0.112
GATTCTCA: 0.119

Set 3
Target: Interferon regulatory factor 3, full length, phosphomimetic (IRF3, Homo sapiens, UniProt Q14653, residues 1-427, S386D/S396D/S398D/S402D/T404D/S405D)
Sequence of UniProt Q14653 (whole entry, unmodified, looked up): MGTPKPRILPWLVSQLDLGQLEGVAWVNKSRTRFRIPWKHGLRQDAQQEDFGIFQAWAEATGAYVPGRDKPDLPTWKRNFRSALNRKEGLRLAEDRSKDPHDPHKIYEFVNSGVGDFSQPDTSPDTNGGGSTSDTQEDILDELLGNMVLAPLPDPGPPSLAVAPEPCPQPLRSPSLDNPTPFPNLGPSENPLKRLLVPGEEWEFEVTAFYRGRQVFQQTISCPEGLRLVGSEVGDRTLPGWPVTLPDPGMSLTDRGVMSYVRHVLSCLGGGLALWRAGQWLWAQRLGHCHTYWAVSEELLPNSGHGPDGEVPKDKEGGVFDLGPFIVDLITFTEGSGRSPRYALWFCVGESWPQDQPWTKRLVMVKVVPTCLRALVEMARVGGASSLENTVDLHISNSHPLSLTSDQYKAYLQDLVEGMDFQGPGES
Technique: protein-binding microarray
Molecule type: double-stranded DNA, one strand shown
Sample: in vitro
Tested at: 2540 nM top
Setting: 60-bp whole probe
Added: salmon DNA 0.4 mg/ml
Reference: random background probes
Direction: higher = stronger binding
Measurement: fitted relative affinity
All sequences stand within: GCCTAGCAC … GTCTTGATTCGCTTGACGCTGCTG
GACGACATCGGGTATCGAGACGTGCTA: -0.478 z-score
GCATCGTAAGCAAAAATGATGTGCTAG: 0.0318 z-score
GACGGTTCCCTTTCCCTGACGTGCTAG: 5.76 z-score
TTAGGACTGGACTATCGGATAGTGCTA: -0.166 z-score
TCATATAGGTTGTTTCTAACTGTGCTA: 0.81 z-score
GACTATTTCAGTTCCGAGACGTGCTAG: 2.31 z-score
GACGGTCTCGGAGTGGGGACGTGCTAG: 0.042 z-score
GACGAACTGAGTCTCAAGACGTGCTAG: -0.16 z-score
TCATGACTCTTTCTGTCACTGTGCTAG: 0.528 z-score
TTAGGACTTGACTATCGGTTAGTGCTA: -0.464 z-score
TTAGGACTGGGTATCGGTTAGTGCTAG: 0.475 z-score
TTAGGACTGCTGATCCTTTAGTGCTAG: -0.397 z-score
GACGATTTCGGTCTCGAGACGTGCTAG: 4.54 z-score
GACGATATCAGTATCGAGGCGTGCTAG: 1.06 z-score
GACGGTATCCTTCTCCGGACGTGCTAG: 7.42 z-score
TTAGATTCCAGTTTCAATTAGTGCTAG: 3.8 z-score
ATGACTCTGCCTCTAACTGCGTGCTAG: -0.493 z-score
TCACCTCTAACTTCCCAACTGTGCTAG: 0.532 z-score
GACGATATCAGTATCTAGACGTGCTAG: 1.03 z-score

Mixed results
PhoQ, residues 284 288 289 292 302 303 AAQSYM
fold induction (PhoP, residues 12 14 15 18 19 TQAIL (Escherichia coli, UniProt P23836); Sort-seq, refers to: YFP reporter; E. coli; PhoQ-PhoP variant library, added: 10 µM Mg2+; reference: high Mg2+ state, higher = stronger signaling): 21.1
